Published values collected from several papers.
Compare with care: the assays were run in different laboratories. Numbers after ± are the reported error.

| SMILES | test system | setting | concentration |
| --- | --- | --- | --- |
| CN1CCCC1CCNS(=O)(=O)c1ccc2c(c1)CN(CC1CCCCC1)CC2 (centres unmarked) | THY-Tau22 mouse, pons/cerebellum | oral in diet, 0.0002% in diet, 6 months, sampled at 8 p.m. | 0.989 ng/g |
| O=S(=O)(c1ccc(-c2ccc3nccc(Nc4ccncn4)c3c2)cc1)N1CCOCC1 | female BALB/c mouse, plasma | intraperitoneal, 10 mg/kg, 1 h | 1050 ng/mL |
| CSc1cc(Oc2ccnc3[nH]c(=O)cnc23)ccc1NC(=O)Nc1cc(C(C)(C)C)nn1-c1ccccc1 | nude mouse (female), tumor | oral, 20 mg/kg, 1 h after last dose, end of therapy | 6.54 µM |
| O=C(N[C@H](Cc1c[nH]c2ccccc12)C(=O)Nc1ccncc1)c1ccc(-c2ccc(F)c(Cl)c2)cc1F | Swiss Webster mouse, female, brain | oral, 50 mg/kg, 8 h, 20% Kolliphor vehicle | 2.6 µM |
| CC(C)(C)c1cc(NC(=O)Nc2ccc(Oc3ccnc4[nH]c(=O)cnc34)cc2F)n(-c2ccccc2)n1 | NSG mouse (female), tumor | oral, 20 mg/kg, 1 h after last dose, end of therapy | 7.71 µM |
| CN(C)C(=O)c1cc2cnc(Nc3ccc(-c4ccc5c(=O)cc(N6CCOCC6)oc5c4)cc3)nc2n1C1CCCC1 | BALB/c mouse, spleen | oral, 20 mg/kg, 2 h | 827 ± 664 ng/g |
| COc1ccc2c3c([nH]c2c1)[C@H](CC(C)C)N1C(=O)[C@H](CC(=O)NC(C)C)NC(=O)[C@@H]1C3 | wild-type mouse, male, serum | oral, 100 mg/kg, 4 h | 10.8 µM |
| O=C(N[C@H](Cc1c[nH]c2ccccc12)C(=O)Nc1ccncc1)c1ccc(N2CCN(c3ccc(F)cc3F)CC2)cc1F | Swiss Webster mouse, female, liver | oral, 50 mg/kg, 8 h, 20% Kolliphor vehicle | 46.1 µM |

Excerpt of the above:
| SMILES | test system | setting | concentration |
| --- | --- | --- | --- |
| CSc1cc(Oc2ccnc3[nH]c(=O)cnc23)ccc1NC(=O)Nc1cc(C(C)(C)C)nn1-c1ccccc1 | nude mouse (female), tumor | oral, 20 mg/kg, 1 h after last dose, end of therapy | 6.54 µM |
